Published values from different studies.
Each line is one published result; not all experiments were run side by side.
Technique: steady-state kinetics
B1: enzyme (Coleus scutellarioides, UniProt Q84VU3); chain MASPLLILFSLPLAVVLYHLFYRLRYRIPPGPRPWPVVGNLYDVKPVRFRCFAEWAQLFGPTFSVWFGSTLNVIVSSSELAKEVLKEKDGQLADRHRSRSAVKLSRDGKDLIWADYGPHYVKVRKVCTVVLFSPKRLELLRPIREDEITVMVESIYQDSAASGKSVVIKKYLASMAFHNITRLVFGKRFVNSEGEVDKQGQEFKAIAINGLKLGASLAVSEHIPWLRWMFPLDEDAFTQHGVRMERLTREIMQEHTLARQKTGGAKQHFFDALLTLKDEYDLSEDTIIALLWDMIAAGMDTPAISVEWAMAELVRNPRVQEKVQEELDRVIGHERIMTELDIPNLPYLQCVVKESLRLHPPTPLMLPHRSNADVKIGGYDIPKGSNVHVNVWAIARDPKSWKDPLEFRPERFLEEDVDIKGHDFRLLPFGAGRRVCPGAQLGIDLATSMIGHLLHHFRWTPPAGVRAEDIDMGENPGTVTYMRTPVEAVPTPRLPADLYKRVAVVDI
B2: enzyme F197V/V84L (Vanderwaltozyma polyspora, UniProt A7TM80); chain MSVLISGASGYIAKHIVRVLLEQNYKVIGTVRSQDKADKLLKQYNNPNLSYEIVPEIANLDAFDDIFKKHGKEIKYVIHAASPLNFGAKDLEKDLVIPAINGTKNMFEAIKKYAPDTVERVVMTASYASIMTPHRQNDPTLTLDEETWNPVTEENAYENVFTAYCASKTFAEKEAWKFVKENSDAVKFKLTTIHPSVVFGPQNFDEDVTKKLNETCEIINGLLHAPFDTKVEKTHFSQFIDVRDVAKTHVLGFQKDELINQRLLLCNGAFSQQDIVNVFNEDFPELKGQFPPEDKDTDLNKGVTGCKIDNEKTKKLLAFEFTPFHKTIHDTVYQILHKEGRV
B3: PYCR2 R251C (Homo sapiens, UniProt Q96C36); chain MSVGFIGAGQLAYALARGFTAAGILSAHKIIASSPEMNLPTVSALRKMGVNLTRSNKETVKHSDVLFLAVKPHIIPFILDEIGADVQARHIVVSCAAGVTISSVEKKLMAFQPAPKVIRCMTNTPVVVQEGATVYATGTHALVEDGQLLEQLMSSVGFCTEVEEDLIDAVTGLSGSGPAYAFMALDALADGGVKMGLPRRLAIQLGAQALLGAAKMLLDSEQHPCQLKDNVCSPGGATIHALHFLESGGFCSLLINAVEASCIRTRELQSMADQEKISPAALKKTLLDRVKLESPTVSTLTPSSPGKLLTRSLALGGKKD
B4: enzyme (Methylibium petroleiphilum, UniProt A2SL37); chain PIIQMNLLEGRTVEQKRNAVAAITEAVVRTLDVRPDQVRILINELGVEHFSVAGQTAAMRQAAAANAKDL
B5: AOC3 (Homo sapiens, UniProt Q16853); chain MNQKTILVLLILAVITIFALVCVLLVGRGGDGGEPSQLPHCPSVSPSAQPWTHPGQSQLFADLSREELTAVMRFLTQRLGPGLVDAAQARPSDNCVFSVELQLPPKAAALAHLDRGSPPPAREALAIVFFGRQPQPNVSELVVGPLPHPSYMRDVTVERHGGPLPYHRRPVLFQEYLDIDQMIFNRELPQASGLLHHCCFYKHRGRNLVTMTTAPRGLQSGDRATWFGLYYNISGAGFFLHHVGLELLVNHKALDPARWTIQKVFYQGRYYDSLAQLEAQFEAGLVNVVLIPDNGTGGSWSLKSPVPPGPAPPLQFYPQGPRFSVQGSRVASSLWTFSFGLGAFSGPRIFDVRFQGERLVYEISLQEALAIYGGNSPAAMTTRYVDGGFGMGKYTTPLTRGVDCPYLATYVDWHFLLESQAPKTIRDAFCVFEQNQGLPLRRHHSDLYSHYFGGLAETVLVVRSMSTLLNYDYVWDTVFHPSGAIEIRFYATGYISSAFLFGATGKYGNQVSEHTLGTVHTHSAHFKVDLDVAGLENWVWAEDMVFVPMAVPWSPEHQLQRLQVTRKLLEMEEQAAFLVGSATPRYLYLASNHSNKWGHPRGYRIQMLSFAGEPLPQNSSMARGFSWERYQLAVTQRKEEEPSSSSVFNQNDPWAPTVDFSDFINNETIAGKDLVAWVTAGFLHIPHAEDIPNTVTVGNGVGFFLRPYNFFDEDPSFYSADSIYFRGDQDAGACEVNPLACLPQAAACAPDLPAFSHGGFSHN
B6: enzyme D423N/R186H/R7G (Gallus gallus, UniProt A0A8V0ZKC1); chain MAGPSGGARRLLLPLRLRPPPPIGPEPPCRTGSSAAAAAAGPARLKGPAELPGPGLLRTFVWLFLRGYLLHTHRLQLMSRRIYGPIWKSTFGHYQNINIGSPVVLEQLLRQEGKYPMRSDMALWKEHRDTRRLPYGPFTEEGERWYRLRQVLNKRLLKPSEAVLYADAIGEVVSDLMVRLRDERSHSPSGVLVGDVANLLYRFALEGISYILFETRIGCLKQQVPPETQHFIDSINLMFKNSIFATVLPRWSRKVLPFWDRYLDSWDTIFAFGKRLIDRKMKELEGHVEKGKEVSQGYLSYLLASGHLSLDEVYGSVAELLLAGVDTTSNTLCWALYHLSRDLGIQDTLYQELKAVVPPDRFPGAEDIPKMPMLRAVIKETLRVYPVVPTNARVFYEKDIVIGDYLFPKNTLFVLAHYAMSHNETYFPEPERFLPQRWLRGHGSPHHPFSSIPFGYGVRACVGRRIAELEMHLALARIIQAYEVRPDPRGVEVTSVSRIVLVADKPINLEFIARPGAP
B7: spt (Sphingomonas paucimobilis, UniProt Q93UV0); chain TEAAAQPHALPADAPDIAPERDLLSKFDGLIAERQKLLDSGVTDPFAIVMEQVKSPTEAVIRGKDTILLGTYNYMGMTFDPDVIAAGKEALEKFGSGTNGSRMLNGTFHDHMEVEQALRDFYGTTGAIVFSTGYMANLGIISTLAGKGEYVILDADSHASIYDGCQQGNAEIVRFRHNSVEDLDKRLGRLPKEPAKLVVLEGVYSMLGDIAPLKEMVAVAKKHGAMVLVDEAHSMGFFGPNGRGVYEAQGLEGQIDFVVGTFSKSVGTVGGFVVSNHPKFEAVRLACRPYIFTASLPPSVVATATTSIRKLMTAHEKRERLWSNARALHGGLKAMGFRLGTETCDSAIVAVMLEDQEQAAMMWQALLDGGLYVNMARPPATPAGTFLLRCSICAEHTPAQIQTVLGMFQAAGRAVGVIG
B8: ART1 (Homo sapiens, UniProt P52961); chain QSHPITRRDLFSQEIQLDMALASFDDQYAGCAAAMTAALPDLNHTEFQANQVYADSWTLASSQWQERQARWPEWSLSPTRPSPPPLGFRDEHGVALLAYTANSPLHKEFNAAVREAGRSRAHYLHHFSFKTLHFLLTEALQLLGSGQRPPRCHQVFRGVHGLRFRPAGPRATVRLGGFASASLKHVAAQQFGEDTFFGIWTCLGAPIKGYSFFPGEEEVLIPPFETFQVINASRLAQGPARIYLRALGKHSTYNCEYIKDKKCKSGPCHLDNS
B9: enzyme C74S (UniProt A0A0P0CH59); chain MRIALFSDIHANLPALEAVLANMETQQLDAIYCLGDLVGYAPWPNEVVAEIRKRRIPTIAGNYDEGVGLWSPNSGCAYKTDTEKDLGQQSIDFTNNVVTEETRKYLRMLPRQLRLTFMDGSKEENKIELLLVHGSPRKINEYLFEDRPEKSFLKMMEEANADLLFFGHTHKPYHRAMPYEHEGQTRYRHAINIGSVGKPKDGDPRTGYVVVELTPESSLTQKDSIKVEFIRVPYDVETAAQAVEASPLPNEFAQMLRTA
B10: enzyme (Bilophila wadsworthia, UniProt E5Y8P9); chain MKTVSEQMELARKAQAIVNDYTQEQIDEICLAIGWEVYEDENIAKLAKMAVEETGYGNVQSKIIKHKRKVGGVLHDIKGAKSVGLIERNEETGISKYAKPVGVVCAILPATNPTATCGGKAVGILKGRNAVIFKPSSRALKSTTEAINMMRAGLRKVGAPEDLIQVLEDPSREAITELMKVSDLIVATGSGQVVRAAYSSGTPAYGVGQGNACAIVAEDADVAEAAKMICGSKLFDYATSCSSENAVIPVEAVYDQFMAEMKKNGCYLVTGEDREKLKNHMWKPNAKGKIALNPDIIAKSAQVIADGAGISIPEGTDILLVEGMEPILGDKFHDEKISPVLTVYKAKDFKDAYRILVELTNLVGRGHSCGIHTYKHEYIEFLGEHMKSSRITVRQSMSAGNGGHPFNRMPSTATLGCGTWGGNSTTENVHWRHFINVTWVNEPVAPWTFTDEDMWGDFWKKYGK
B11: SCO6712 S292F/V290N/Y229F (Streptomyces coelicolor, UniProt Q9XAL8); chain AKGITARTAPAGGEVRHLKMYAEKLADGQMGYGFEKGKASVPGPLIEVNEGDTLHIEFTNTMDVRASLHVHGLDYEISSDGTAMNKSDVEPGGTRTYTWRTHKPGRRDDGTWRPGSAGYWHYHDHVVGTEHGTGGIRNGLYGPVIVRRKGDVLPDATHTIVFNDMTINNRKPHTGPDFEATVGDRVEIVMITHGEFYHTFHMHGHRWADNRTGILTGPDDPSRVIDNKITGPADSFGFQIIAGEGVGAGAWMYHCHNQFHSDMGMVGLFLVKKPDGTIPGYEPHEHGGATAKSGESGEPTGGAAAHEHEH
UniProt B8H080, sequence (whole entry, looked up): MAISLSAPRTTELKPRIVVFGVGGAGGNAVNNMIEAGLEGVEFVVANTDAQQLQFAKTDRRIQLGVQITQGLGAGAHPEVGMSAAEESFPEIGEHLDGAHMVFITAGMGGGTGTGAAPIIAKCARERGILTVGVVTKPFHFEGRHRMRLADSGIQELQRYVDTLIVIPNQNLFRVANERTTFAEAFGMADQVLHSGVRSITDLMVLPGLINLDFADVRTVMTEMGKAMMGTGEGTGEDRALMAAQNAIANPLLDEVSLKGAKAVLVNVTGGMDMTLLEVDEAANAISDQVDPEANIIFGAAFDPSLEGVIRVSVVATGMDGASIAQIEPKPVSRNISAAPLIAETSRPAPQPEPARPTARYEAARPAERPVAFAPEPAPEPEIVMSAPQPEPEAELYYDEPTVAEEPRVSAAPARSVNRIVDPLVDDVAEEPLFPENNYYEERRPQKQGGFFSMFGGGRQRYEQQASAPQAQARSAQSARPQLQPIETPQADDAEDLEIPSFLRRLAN
UniProt Q57160, sequence (whole entry, looked up): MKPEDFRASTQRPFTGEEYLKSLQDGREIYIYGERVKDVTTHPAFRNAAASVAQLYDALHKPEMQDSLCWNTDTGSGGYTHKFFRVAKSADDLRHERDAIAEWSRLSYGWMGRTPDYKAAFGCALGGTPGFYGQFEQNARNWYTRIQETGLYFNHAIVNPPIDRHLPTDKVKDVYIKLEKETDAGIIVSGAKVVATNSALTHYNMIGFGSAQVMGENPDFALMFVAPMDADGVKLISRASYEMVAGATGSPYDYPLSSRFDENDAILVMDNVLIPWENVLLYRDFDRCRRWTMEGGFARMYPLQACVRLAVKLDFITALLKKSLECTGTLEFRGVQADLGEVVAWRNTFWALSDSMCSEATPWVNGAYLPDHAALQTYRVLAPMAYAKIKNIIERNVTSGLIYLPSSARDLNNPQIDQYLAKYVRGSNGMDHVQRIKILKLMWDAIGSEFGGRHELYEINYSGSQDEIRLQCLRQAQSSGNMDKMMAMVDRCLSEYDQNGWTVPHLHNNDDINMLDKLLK

`enzyme M50A (Homo sapiens, UniProt Q08623)` gave a Km of 39 µM (O=c1[nH]cc([C@@H]2O[C@H](COP(=O)(O)O)[C@@H](O)[C@H]2O)c(=O)[nH]1; pH 7, 25 °C).
The Km of `ftsZ (Caulobacter crescentus, UniProt B8H080)` is reported as 80 µM (Nc1nc2c(ncn2[C@@H]2O[C@H](COP(=O)(O)OP(=O)(O)OP(=O)(O)O)[C@@H](O)[C@H]2O)c(=O)[nH]1).
The Km of `enzyme (Parabacteroides distasonis, UniProt A0A7L5EB83)` is reported as 6870 µM (CC(=O)N[C@H]1[C@H](Oc2ccc([N+](=O)[O-])cc2)O[C@H](CO)[C@@H](O)[C@@H]1O[C@@H]1O[C@H](CO)[C@H](O)[C@H](O)[C@H]1O; pH 6, 50 °C).
For `gdh E198G/N192S/N97F (Bacillus subtilis)`, the Km was 250 µM (NC(=O)c1ccc[n+]([C@@H]2O[C@H](COP(=O)(O)OP(=O)(O)OC[C@H]3O[C@@H](n4cnc5c(N)ncnc54)[C@H](O)[C@@H]3O)[C@@H](O)[C@H]2O)c1; pH 7, 50 °C).
With `hpaB (Escherichia coli, UniProt Q57160)` the Km was 465 µM (O=C(O)/C=C/c1ccc(O)cc1; pH 8, 37 °C).
The Km of `B1 (enzyme)` is reported as 137 µM (O=C(/C=C/c1ccc(O)cc1)O[C@H](Cc1ccc(O)c(O)c1)C(=O)O; pH 7.5, 30 °C, not purified).
For `B2 (enzyme F197V/V84L)`, the Km was 2300 µM (CCO; pH 8, 30 °C, together with: NADP+).
For `B3 (PYCR2 R251C)`, the Km was 119 µM (NC(=O)C1=CN([C@@H]2O[C@H](COP(=O)(O)OP(=O)(O)OC[C@H]3O[C@@H](n4cnc5c(N)ncnc54)[C@H](OP(=O)(O)O)[C@@H]3O)[C@@H](O)[C@H]2O)C=CC1; pH 7.5, 37 °C, apparent, cofactor varied, together with: DL-P5C 5000 µM).
The Km of `B4 (enzyme)` is reported as 211 µM (C/C(=C\C=C(/O)C(=O)O)C(=O)O; pH 7.3, 24 °C).
`B5 (AOC3)` has a Km of 674 µM (NCc1cc2c(cc1F)C(=O)N(C1CCC(=O)NC1=O)C2; pH 7.4, 37 °C, recombinant).
`enzyme (Thermothielavioides terrestris, UniProt G2R650)` gave a Km of 1620 µM (C=Cc1ccc(O)c(OC)c1; pH 8, 45 °C).
`B6 (enzyme D423N/R186H/R7G)` has a Km of 4.93 µM (C=C1CC[C@H](O)C/C1=C/C=C1\CCC[C@]2(C)[C@@H]([C@H](C)CCCC(C)C)CC[C@@H]12; pH 7.4, 37 °C, not purified).
For `B7 (spt)`, the Km was 80 µM (CCCCCCCCCCCCCC(=O)SCCNC(=O)CCNC(=O)[C@H](O)C(C)(C)COP(=O)(O)OP(=O)(O)OC[C@H]1O[C@@H](n2cnc3c(N)ncnc32)[C@H](O)[C@@H]1OP(=O)(O)O; together with: PLP).
For `B8 (ART1)`, the Km was 1300 µM (COC(=O)[C@@H](N)CCCNC(=N)N; pH 7.5, 25 °C, HEPES 50 mM, together with: saturating NAD+).
`enzyme (UniProt I4BTU9)` has a Km of 5440 µM (N[C@@H](CO)C(=O)O; pH 8, 30 °C).
`B9 (enzyme C74S)` has a Km of 13700 µM (O=[N+]([O-])c1ccc(OP(=O)(O)O)cc1; pH 7, 37 °C, together with: Ni2+ 0.25 mM).
With `enzyme (Plasmodium falciparum, UniProt C0H484)` the Km was 15 µM (Nc1nc2c(ncn2[C@@H]2O[C@H](COP(=O)(O)OP(=O)(O)OP(=O)(O)O)[C@@H](O)[C@H]2O)c(=O)[nH]1; together with: Mn2+).
With `B10 (enzyme)` the Km was 680 µM (NC(=O)c1ccc[n+]([C@@H]2O[C@H](COP(=O)(O)OP(=O)(O)OC[C@H]3O[C@@H](n4cnc5c(N)ncnc54)[C@H](OP(=O)(O)O)[C@@H]3O)[C@@H](O)[C@H]2O)c1; pH 9.5, apparent, cofactor varied).
`enzyme (Staphylococcus aureus, UniProt Q2G294)` gave a Km of 2300 µM (CCC(=O)O; pH 7, 30 °C, apparent).
For `B11 (SCO6712 S292F/V290N/Y229F)`, the Km was 1000 µM (CCn1c(=NN=c2sc3cc(S(=O)(=O)O)ccc3n2CC)sc2cc(S(=O)(=O)O)ccc21; pH 7, 37 °C, NaCl 150 mM, together with: O2 cosubstrate).
